Assay results gathered from unrelated publications.
Numbered parts are unrelated; each lists some results of a single study. “And” joins repeats or separate records; there may be more than shown.
UniProt P08069, sequence (whole entry, looked up): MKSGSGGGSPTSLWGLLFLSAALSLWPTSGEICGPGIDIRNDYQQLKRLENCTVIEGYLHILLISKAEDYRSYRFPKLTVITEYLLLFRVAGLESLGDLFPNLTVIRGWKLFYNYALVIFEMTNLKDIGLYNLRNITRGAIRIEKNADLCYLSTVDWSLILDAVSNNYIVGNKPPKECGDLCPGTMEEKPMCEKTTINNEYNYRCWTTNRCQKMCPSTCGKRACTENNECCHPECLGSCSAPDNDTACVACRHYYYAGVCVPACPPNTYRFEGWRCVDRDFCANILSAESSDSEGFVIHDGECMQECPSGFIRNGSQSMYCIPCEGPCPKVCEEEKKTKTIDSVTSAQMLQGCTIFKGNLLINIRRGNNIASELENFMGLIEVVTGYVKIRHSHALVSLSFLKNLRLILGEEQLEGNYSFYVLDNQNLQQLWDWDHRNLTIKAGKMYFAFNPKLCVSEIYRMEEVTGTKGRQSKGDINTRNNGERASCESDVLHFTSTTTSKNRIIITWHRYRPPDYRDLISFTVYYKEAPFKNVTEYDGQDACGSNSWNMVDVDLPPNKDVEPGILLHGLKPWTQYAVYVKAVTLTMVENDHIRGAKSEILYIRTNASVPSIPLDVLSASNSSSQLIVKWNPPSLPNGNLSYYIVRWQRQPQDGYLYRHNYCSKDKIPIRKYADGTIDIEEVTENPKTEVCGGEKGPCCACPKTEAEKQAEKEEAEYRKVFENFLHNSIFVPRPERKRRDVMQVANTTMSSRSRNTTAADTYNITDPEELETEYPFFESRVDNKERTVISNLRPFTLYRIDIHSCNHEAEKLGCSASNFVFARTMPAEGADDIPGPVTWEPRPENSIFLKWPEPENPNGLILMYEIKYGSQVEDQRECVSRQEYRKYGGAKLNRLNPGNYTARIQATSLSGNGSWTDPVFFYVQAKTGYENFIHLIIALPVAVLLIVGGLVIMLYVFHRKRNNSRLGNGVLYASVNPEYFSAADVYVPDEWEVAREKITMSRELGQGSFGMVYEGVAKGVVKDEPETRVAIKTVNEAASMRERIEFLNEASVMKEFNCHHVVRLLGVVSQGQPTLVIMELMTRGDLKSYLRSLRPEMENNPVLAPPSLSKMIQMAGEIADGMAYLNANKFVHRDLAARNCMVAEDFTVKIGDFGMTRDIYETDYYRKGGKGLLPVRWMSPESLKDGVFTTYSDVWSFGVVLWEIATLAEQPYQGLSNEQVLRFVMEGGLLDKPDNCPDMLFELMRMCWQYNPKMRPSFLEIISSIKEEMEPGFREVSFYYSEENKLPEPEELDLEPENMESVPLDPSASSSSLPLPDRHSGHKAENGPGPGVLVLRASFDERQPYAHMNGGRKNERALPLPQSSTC
UniProt Q5VT25, sequence (whole entry, looked up): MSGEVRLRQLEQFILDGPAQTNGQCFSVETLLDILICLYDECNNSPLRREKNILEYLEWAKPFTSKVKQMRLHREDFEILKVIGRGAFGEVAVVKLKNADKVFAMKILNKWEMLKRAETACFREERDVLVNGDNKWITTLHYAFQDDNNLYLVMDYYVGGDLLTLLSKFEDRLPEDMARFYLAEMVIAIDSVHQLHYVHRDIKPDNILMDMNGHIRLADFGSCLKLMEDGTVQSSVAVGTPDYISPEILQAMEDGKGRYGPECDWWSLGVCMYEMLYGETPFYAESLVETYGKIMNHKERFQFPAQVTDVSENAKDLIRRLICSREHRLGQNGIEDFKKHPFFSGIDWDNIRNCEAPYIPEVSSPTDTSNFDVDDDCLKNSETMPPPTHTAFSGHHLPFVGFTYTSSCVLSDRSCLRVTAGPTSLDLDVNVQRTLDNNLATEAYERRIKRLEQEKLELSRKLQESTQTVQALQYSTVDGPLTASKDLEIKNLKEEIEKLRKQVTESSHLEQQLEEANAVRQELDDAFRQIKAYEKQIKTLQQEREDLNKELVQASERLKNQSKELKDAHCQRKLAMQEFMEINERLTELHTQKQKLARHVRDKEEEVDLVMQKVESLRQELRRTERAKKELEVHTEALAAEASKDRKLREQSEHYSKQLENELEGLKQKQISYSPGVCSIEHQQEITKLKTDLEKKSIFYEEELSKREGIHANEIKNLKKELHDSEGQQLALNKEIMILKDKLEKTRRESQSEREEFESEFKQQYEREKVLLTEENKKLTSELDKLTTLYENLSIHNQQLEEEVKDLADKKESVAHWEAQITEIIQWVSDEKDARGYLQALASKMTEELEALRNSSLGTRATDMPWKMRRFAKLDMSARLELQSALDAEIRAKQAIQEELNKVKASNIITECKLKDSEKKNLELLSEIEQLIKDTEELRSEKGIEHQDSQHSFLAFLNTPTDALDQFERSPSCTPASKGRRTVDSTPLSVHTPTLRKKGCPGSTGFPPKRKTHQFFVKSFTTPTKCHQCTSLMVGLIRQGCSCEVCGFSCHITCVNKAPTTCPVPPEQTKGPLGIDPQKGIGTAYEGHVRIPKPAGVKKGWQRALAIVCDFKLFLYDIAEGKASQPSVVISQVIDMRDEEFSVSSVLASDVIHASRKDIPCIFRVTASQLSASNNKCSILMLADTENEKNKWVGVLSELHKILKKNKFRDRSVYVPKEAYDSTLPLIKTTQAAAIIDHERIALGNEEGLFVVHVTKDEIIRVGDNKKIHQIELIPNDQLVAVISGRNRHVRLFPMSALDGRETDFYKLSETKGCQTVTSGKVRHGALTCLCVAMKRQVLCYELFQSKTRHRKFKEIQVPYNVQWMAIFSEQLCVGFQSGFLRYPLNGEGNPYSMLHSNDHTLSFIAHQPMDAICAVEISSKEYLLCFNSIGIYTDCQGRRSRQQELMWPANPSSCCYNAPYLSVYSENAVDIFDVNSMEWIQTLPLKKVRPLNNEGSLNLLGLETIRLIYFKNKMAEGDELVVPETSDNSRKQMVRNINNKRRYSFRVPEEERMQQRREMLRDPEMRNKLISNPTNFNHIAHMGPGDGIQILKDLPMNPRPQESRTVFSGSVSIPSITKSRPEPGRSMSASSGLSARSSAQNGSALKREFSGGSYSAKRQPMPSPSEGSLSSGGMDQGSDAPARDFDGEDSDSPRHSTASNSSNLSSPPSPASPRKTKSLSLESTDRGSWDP
UniProt P15056, sequence (whole entry, unmodified, looked up): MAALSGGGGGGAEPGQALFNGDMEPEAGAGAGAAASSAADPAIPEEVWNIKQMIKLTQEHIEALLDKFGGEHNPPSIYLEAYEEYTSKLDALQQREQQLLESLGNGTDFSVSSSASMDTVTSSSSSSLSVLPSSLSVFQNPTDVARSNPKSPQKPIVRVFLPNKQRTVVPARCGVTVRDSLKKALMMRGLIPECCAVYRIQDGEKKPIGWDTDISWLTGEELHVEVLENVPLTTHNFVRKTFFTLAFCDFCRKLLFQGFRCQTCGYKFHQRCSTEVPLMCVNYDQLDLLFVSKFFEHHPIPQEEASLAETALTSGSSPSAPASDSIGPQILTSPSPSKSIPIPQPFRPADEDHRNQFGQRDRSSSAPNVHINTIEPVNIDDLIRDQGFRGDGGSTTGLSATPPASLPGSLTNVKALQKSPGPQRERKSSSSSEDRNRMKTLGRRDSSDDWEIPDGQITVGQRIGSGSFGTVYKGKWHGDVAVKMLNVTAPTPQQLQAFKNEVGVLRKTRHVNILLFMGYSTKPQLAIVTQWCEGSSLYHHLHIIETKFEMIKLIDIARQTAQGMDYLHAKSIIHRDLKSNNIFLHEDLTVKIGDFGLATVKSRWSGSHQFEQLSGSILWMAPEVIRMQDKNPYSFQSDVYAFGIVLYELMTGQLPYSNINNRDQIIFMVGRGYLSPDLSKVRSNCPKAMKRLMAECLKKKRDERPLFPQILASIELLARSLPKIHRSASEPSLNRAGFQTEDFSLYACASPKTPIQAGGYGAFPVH

Sample 1
Cell line: HaCaT
Tested at: 100 µM
Time: 36 h
CO[C@H]1/C=C/O[C@@]2(C)Oc3c(C)c(O)c4c(O)c(c(/C=N/N5CCN(C6CCCC6)CC5)c(O)c4c3C2=O)NC(=O)/C(C)=C\C=C\[C@H](C)[C@H](O)[C@@H](C)[C@@H](O)[C@@H](C)[C@H](OC(C)=O)[C@@H]1C gave a viability of 39.6%.
For O=C(O)c1cccnc1, the viability was 108%.
The viability of CO/N=C1\C[C@]2(C[C@@H]3C[C@@H](C/C=C(\C)C[C@@H](C)/C=C/C=C4\CO[C@@H]5[C@H](O)C(C)=C[C@@H](C(=O)O3)[C@]45O)O2)O[C@H](/C(C)=C/C(C)C)[C@H]1C is reported as 11%.
With O=C(O)[C@H](CC(=O)N1C[C@H]2CCCC[C@H]2C1)Cc1ccccc1 the viability was 99.1%.
CCCCC(C)(O)C/C=C/[C@H]1[C@H](O)CC(=O)[C@@H]1CCCCCCC(=O)OC (mixture of isomers) has a viability of 94.6%.
For Cc1ccc(S(=O)(=O)NC(=O)NN2CC3CCC[C@@H]3C2)cc1 (stereo in doubt), the viability was 85.5%.

Sample 2
Cell line: mouse MPNST tumor cells
Technique: high-content nuclear imaging
Refers to: cell number
Tested at: 10 µM
Time: 12 h
Setting: mean of 2 replicates
Reference: plate mean
Reading: higher = more cells
For CN1Cc2c(C(=O)OC(C)(C)C)ncn2-c2ccsc2C1=O, the nuclei count was -0.263 z-score.
The nuclei count of NC(=O)[C@@H](CCC(F)(F)F)N(Cc1ccc(-c2ncon2)cc1F)S(=O)(=O)c1ccc(Cl)cc1 is reported as 2.18 z-score.
N[C@@H](C(=O)N[C@@H]1C(=O)N2C(C(=O)O)=C(Cl)CS[C@H]12)c1ccccc1 has a nuclei count of -0.952 z-score.
CCN1C(=CC(C)=O)Sc2ccc(OC)cc21 has a nuclei count of 3.01 z-score.
For C[C@@H]1CN(c2cc(-c3n[nH]c4ccc(OC5(C)CC5)cc34)ncn2)C[C@H](C)O1, the nuclei count was 0.0143 z-score.
COc1ccc(N(C)c2nc(C)nc3ccccc23)cc1 gave a nuclei count of -3.51 z-score.
For COc1cc(-c2cn(C)c(=O)c3cnccc23)c(OC)cc1CN(C)C, the nuclei count was -2.77 z-score and -3.17 z-score.
With NC(=O)NO the nuclei count was -0.362 z-score.

Sample 3
Target: Tyrosine-protein kinase Lyn (LYN, Homo sapiens, UniProt P07948)
UniProt P07948, sequence (whole entry, looked up): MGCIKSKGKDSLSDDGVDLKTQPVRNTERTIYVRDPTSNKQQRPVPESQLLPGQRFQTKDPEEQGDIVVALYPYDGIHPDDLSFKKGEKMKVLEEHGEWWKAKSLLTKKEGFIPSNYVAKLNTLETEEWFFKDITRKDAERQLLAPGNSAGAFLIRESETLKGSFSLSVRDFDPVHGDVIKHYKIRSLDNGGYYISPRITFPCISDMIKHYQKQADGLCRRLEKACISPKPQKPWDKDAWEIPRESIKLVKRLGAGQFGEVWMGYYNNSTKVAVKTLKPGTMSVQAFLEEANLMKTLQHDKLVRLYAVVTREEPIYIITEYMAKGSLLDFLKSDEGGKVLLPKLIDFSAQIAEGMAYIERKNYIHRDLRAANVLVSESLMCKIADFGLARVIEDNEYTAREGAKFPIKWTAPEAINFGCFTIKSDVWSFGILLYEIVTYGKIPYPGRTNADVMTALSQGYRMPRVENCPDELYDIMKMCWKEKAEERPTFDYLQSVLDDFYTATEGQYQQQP
Effect on: enzyme activity
Mode: inhibitor
Tested at: 0.5 µM
Reference: control
For Cc1nc(-c2ccccc2)c(-c2ccncc2)o1, the remaining activity was 97.4%.
With O=C(O)c1ccc2c3c1cccc3c(=O)n1c3ccccc3nc21 the remaining activity was 101%.
With O=C1NC(=O)C(c2cn(CCCO)c3ncccc23)=C1c1cnccn1 the remaining activity was 112%.
With CO[C@H]1C[C@@H]2CC[C@@H](C)[C@@](O)(O2)C(=O)C(=O)N2CCCC[C@H]2C(=O)O[C@H]([C@H](C)C[C@@H]2CC[C@@H](O)[C@H](OC)C2)CC(=O)[C@H](C)/C=C(\C)[C@@H](O)[C@@H](OC)C(=O)[C@H](C)C[C@H](C)/C=C/C=C/C=C/1C the remaining activity was 100%.
The remaining activity of C#Cc1cccc(Nc2ncnc3cc(OCCOC)c(OCCOC)cc23)c1 is reported as 72.5%.
COc1ccc(C(=O)Nc2sc3c(c2C(N)=O)CCCC3)cc1OC has a remaining activity of 93.5%.
CNC(=O)c1cc(Oc2ccc(NC(=O)Nc3ccc(Cl)c(C(F)(F)F)c3)cc2)ccn1 has a remaining activity of 88.1%.
For Nc1[nH]nc2nc3ccccc3nc12, the remaining activity was 97%.
Cn1sc(=O)n(Cc2ccccc2)c1=O gave a remaining activity of 90.8%.
CC(C)[C@H](CO)Nc1nc(Nc2cc(N)cc(Cl)c2)c2ncn(C(C)C)c2n1 has a remaining activity of 23.1%.
CN(C)c1ccc(C=C2C(=O)Nc3ccccc32)cc1 gave a remaining activity of 108%.
The remaining activity of O=C1NC(=O)C(c2cn(CCCn3ccnc3)c3ccccc23)=C1Nc1ccccc1 is reported as 96.4%.
Cc1ccc(NC(=O)c2ccc(CN3CCN(C)CC3)cc2)cc1Nc1nc(-c2cccnc2)cs1 has a remaining activity of 16.2%.
With COc1cc2ncnc(Nc3ccc(F)c(Cl)c3)c2cc1OCCCN1CCOCC1 the remaining activity was 57.1%.
Cn1c2ccccc2c2c3c(c4c5ccccc5n(CCC#N)c4c21)CNC3=O has a remaining activity of 94.4%.

Sample 4
SMILES: CN([C@@H]1CCc2c(CC(=O)O)c3cc(S(C)(=O)=O)ccc3n2C1)S(=O)(=O)c1ccc(F)cc1
Effect on: cell-free assay
Technique: competition with immobilised ligand
Tested at: 1 µM
The remaining binding was 98% (Phosphatidylinositol 4-kinase beta (PI4KB, Homo sapiens, UniProt Q9UBF8)).
Ribosomal protein S6 kinase alpha-5, C-terminal kinase domain (RPS6KA5, Homo sapiens, UniProt O75582) — remaining binding: 71%.
For Serine/threonine-protein kinase MRCK alpha (CDC42BPA, Homo sapiens, UniProt Q5VT25): remaining binding read 100%.
The remaining binding was 98% (Insulin-like growth factor 1 receptor (IGF1R, Homo sapiens, UniProt P08069)).
It gave 90% for remaining binding (Serine/threonine-protein kinase B-raf (BRAF, Homo sapiens, UniProt P15056, V600E)).

Mixed results
The blood glucose of CN(N=O)C(=O)N[C@@H]1[C@@H](O)[C@H](O)[C@@H](CO)O[C@@H]1O is reported as 419 mg/dL and 360 mg/dL and 364 mg/dL and 553 mg/dL and 518 mg/dL (mice, STZ diabetic neuropathy; dose not given, 3 days after STZ).
